Results from different studies.
Target: Amine oxidase [flavin-containing] A (MAOA, Homo sapiens, UniProt P21397)
Chain of UniProt P21397 (whole entry, looked up): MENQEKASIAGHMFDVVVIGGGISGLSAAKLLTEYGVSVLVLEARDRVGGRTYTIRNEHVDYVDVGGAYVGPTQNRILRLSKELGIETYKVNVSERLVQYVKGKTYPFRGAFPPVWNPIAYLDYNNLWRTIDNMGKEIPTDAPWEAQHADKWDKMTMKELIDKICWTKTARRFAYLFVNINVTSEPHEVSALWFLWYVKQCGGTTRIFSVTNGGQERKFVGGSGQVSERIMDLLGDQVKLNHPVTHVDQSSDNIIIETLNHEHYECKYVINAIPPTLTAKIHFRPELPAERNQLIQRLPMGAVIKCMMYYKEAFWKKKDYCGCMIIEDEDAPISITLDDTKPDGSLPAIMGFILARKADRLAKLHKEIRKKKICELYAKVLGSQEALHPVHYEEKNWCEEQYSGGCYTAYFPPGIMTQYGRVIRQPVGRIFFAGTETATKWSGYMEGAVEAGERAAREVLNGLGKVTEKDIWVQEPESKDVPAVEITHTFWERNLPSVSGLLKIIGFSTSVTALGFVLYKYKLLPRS
Read-out: enzyme activity
Action: inhibitor

SMILES | assay | setting | IC50 [µM]
O=C(/C=C/c1ccccc1F)c1cc2ccccc2oc1=O | – | – | > 40
NC(=S)N/N=C/c1cccc(OCc2ccccc2)c1 | absorbance | – | 2.32
O=C1c2cc(Cl)ccc2NC12CCCC2 | – | – | 20.2
O=[N+]([O-])c1cccc(C2=Nn3c(nnc3-c3ccc(-n4nc(-c5ccccc5O)nc4-c4ccccc4O)cc3)SC2)c1 | fluorescence | – | 6.67
O=C(/C=C/c1cccc(F)c1)c1cc2ccccc2oc1=O | – | – | > 40
Cc1ccc(/C=C/C(=O)c2ccc(N3CCNCC3)cc2)cc1 | – | with preincubation | 29.4
CC(=O)C1=C(C)NC(SCCCSc2nnc(Cc3ccccc3Nc3c(Cl)cccc3Cl)n2-c2ccc(Cl)c(Cl)c2)=NC1c1ccccc1 (centres unmarked) | fluorescence | – | 1.44
O=C(/C=C/c1cccc(Cl)c1)c1cc2ccccc2oc1=O | – | – | > 40
CSc1ccc(C2=Nn3c(nnc3-c3ccc(-n4nc(-c5ccccc5O)nc4-c4ccccc4O)cc3)SC2)cc1 | fluorescence | – | 1.52
S=C(N/N=C/c1ccccc1OCc1ccccc1)Nc1ccccc1 | absorbance | – | > 40
CC(=O)C1=C(C)NC(SCCCSc2nnc(Cc3ccccc3Nc3c(Cl)cccc3Cl)n2-c2ccc(Cl)c(Cl)c2)=NC1c1ccc([N+](=O)[O-])cc1 (centres unmarked) | fluorescence | – | 1.26
O=C(/C=C/c1ccc(Br)cc1)c1cc2ccccc2oc1=O | – | – | > 40
NC(=S)N/N=C/c1ccc(OCc2ccccc2)cc1 | absorbance | – | > 40
Oc1ccccc1-c1nc(-c2ccccc2O)n(-c2ccc(-c3nnc4n3N=C(c3ccccc3)CS4)cc2)n1 | fluorescence | – | 0.63
CNC(=S)N/N=C/c1cccc(OCc2ccccc2)c1 | absorbance | – | 4.53
O=C1c2cc(F)ccc2N(Cc2ccccc2)C12CCCC2 | – | – | 31.1

SMILES | assay | setting | IC50 [µM]
NNC(=O)c1ccc(-n2nc(-c3ccccc3O)nc2-c2ccccc2O)cc1 | fluorescence | – | 10.1
CNC(=S)N/N=C/c1ccc(OCc2ccccc2)cc1 | absorbance | – | > 40
O=C1c2ccccc2N(Cc2ccccc2)C12CCCC2 | – | – | > 40
CC(=O)C1=C(C)NC(SCCCSc2nnc(Cc3ccccc3Nc3c(Cl)cccc3Cl)n2-c2ccc(Cl)c(Cl)c2)=NC1c1ccc(C)cc1 (centres unmarked) | fluorescence | – | 2.39
CNC(=S)N/N=C/c1ccccc1OCc1ccccc1 | absorbance | – | > 40
Nn1c(-c2ccc(-n3nc(-c4ccccc4O)nc3-c3ccccc3O)cc2)n[nH]c1=S | fluorescence | – | 19
NC(=O)N/N=C/c1cccc(OCc2ccccc2)c1 | absorbance | – | 32.9
N#Cc1ccc(CN2c3ccccc3C(=O)C23CCCC3)cc1 | – | – | 22.4
COc1ccc(/C=C/C(=O)c2ccc(N3CCNCC3)cc2)cc1 | – | with preincubation | 27.9
CCS(=O)(=O)N1CCN(CC(=O)Nc2ccc(/C=C/C(=O)c3ccc(OC)c(OC)c3)cc2)CC1 | fluorescence | – | > 1000
O=C(/C=C/c1ccc(Br)cc1)c1ccc(N2CCNCC2)cc1 | – | with preincubation | > 40
O=c1ccoc2ccc(OCCCN3CCOCC3)cc12 | fluorescence | – | 1.7
O=C(/C=C/c1ccccc1)c1cc2ccccc2oc1=O | – | – | > 40
O=C(/C=C/c1ccc(O)cc1)c1ccc(N2CCNCC2)cc1 | – | with preincubation | 30.1
NC(=O)N/N=C/c1ccc(OCc2cccc(F)c2)cc1 | absorbance | – | 8.44
O=C1c2ccccc2N(Cc2ccc(F)cc2)C12CCCC2 | – | – | 24.2

Excerpt of the above:
SMILES | assay | setting | IC50 [µM]
NNC(=O)c1ccc(-n2nc(-c3ccccc3O)nc2-c2ccccc2O)cc1 | fluorescence | – | 10.1
CNC(=S)N/N=C/c1ccc(OCc2ccccc2)cc1 | absorbance | – | > 40
O=C1c2ccccc2N(Cc2ccccc2)C12CCCC2 | – | – | > 40
CC(=O)C1=C(C)NC(SCCCSc2nnc(Cc3ccccc3Nc3c(Cl)cccc3Cl)n2-c2ccc(Cl)c(Cl)c2)=NC1c1ccc(C)cc1 (centres unmarked) | fluorescence | – | 2.39
CNC(=S)N/N=C/c1ccccc1OCc1ccccc1 | absorbance | – | > 40
